{"data": "Measurements pooled from the literature", "B1": "palmitoyl-protein thioesterase 1 (human); sequence looked up; chain DPPAPLPLVIWHGMGDSCCNPLSMGAIKKMVEKKIPGIYVLSLEIGKTLMEDVENSFFLNVNSQVTTVCQALAKDPKLQQGYNAMGFSQGGQFLRAVAQRCPSPPMINLISVGGQHQGVFGLPRCPGESSHICDFIRKTLNAGAYSKVVQERLVQAEYWHDPIKEDVYRNHSIFLADINQERGINESYKKNLMALKKFVMVKFLNDSIVDPVDSEWFGFYRSGQAKETIPLQETSLYTQDRLGLKEMDNAGQLVFLATEGDHLQLSEEWFYAHIIPFLG", "B2": "peroxiredoxin-2 (human); sequence looked up; chain ASGNARIGKPAPDFKATAVVDGAFKEVKLSDYKGKYVVLFFYPLDFTFVCPTEIIAFSNRAEDFRKLGCEVLGVSVDSQFTHLAWINTPRKEGGLGPLNIPLLADVTRRLSEDYGVLKTDEGIAYRGLFIIDGKGVLRQITVNDLPVGRSVDEALRLVQAFQYTDEHGEVCPAGWKPGSDTIKPNVDDSKEYFSKHN", "note": "Compare with care: the assays were run in different laboratories. Values joined by “and” are separate records of one study, mostly repeats; a detail may differ."}
{"Substance": "Polymyxin B", "target or system": "Staphylococcus aureus", "setting": "concentration not given, together with: MgCl2 1 mM", "how to read": "relative to: no added salt", "measurement": "MIC fold change", "result": "2 fold"}
{"Substance": "B1", "target or system": "CYB5R4 knockout human cells", "test": "PP4 interaction, 3xFLAG-PP4C IP-MS", "setting": "concentration not given", "how to read": "relative to: CYB5R4 KO over parental", "measurement": "log2 fold change", "result": -1.71}
{"Substance": "Polymyxin B", "target or system": "Staphylococcus aureus", "test system": "CMCC 26003", "setting": "concentration not given", "measurement": "superoxide dismutase activity", "result": "0.273 U and 0.259 U and 0.284 U"}
{"Substance": "bacitracin", "target or system": "Staphylococcus aureus", "test system": "CGMCC 1.9", "setting": "concentration not given, 18 h, 37 °C", "measurement": "inhibition zone diameter", "result": "8 mm"}
{"Substance": "colistin", "target or system": "Staphylococcus aureus", "test system": "ATCC 25922, RPMI 1640 10% FBS", "setting": "18 to 24 h, 37 °C", "measurement": "MIC", "result": "0.98 µM"}
{"Substance": "polymyxin B", "target or system": "Staphylococcus aureus", "test": "broth microdilution", "test system": "MRSA USA300-0114, Mueller-Hinton broth", "setting": "24 h, 37 °C", "measurement": "MIC", "result": "63 µg/mL"}
{"Substance": "Polymyxin B", "target or system": "Staphylococcus aureus", "test": "broth microdilution", "test system": "Newman (MSSA)", "measurement": "MIC", "result": "> 32 µg/mL"}
{"Substance": "B2 (peroxiredoxin-2)", "target or system": "CYB5R4 knockout human cells", "test": "PP4 interaction, 3xFLAG-PP4C IP-MS", "setting": "concentration not given", "how to read": "relative to: CYB5R4 KO over parental", "measurement": "log2 fold change", "result": 0.76}
{"Substance": "benzalkonium chloride", "target or system": "Staphylococcus aureus", "test system": "ATCC 33591 HA-MRSA", "setting": "tested up to 1 µM", "measurement": "MIC", "result": "4 µM"}
{"Substance": "gentamicin sulfate", "target or system": "Staphylococcus aureus", "test system": "ATCC 43300, resistant", "setting": "18 h, 37 °C, LED light 10 min, 1.57 mW", "measurement": "MIC", "result": "128 µM"}
{"note": "Excerpt of the above:"}
{"Substance": "B2 (peroxiredoxin-2)", "target or system": "CYB5R4 knockout human cells", "test": "PP4 interaction, 3xFLAG-PP4C IP-MS", "setting": "concentration not given", "how to read": "relative to: CYB5R4 KO over parental", "measurement": "log2 fold change", "result": 0.76}
{"Substance": "B1", "target or system": "CYB5R4 knockout human cells", "test": "PP4 interaction, 3xFLAG-PP4C IP-MS", "setting": "concentration not given", "how to read": "relative to: CYB5R4 KO over parental", "measurement": "log2 fold change", "result": -1.71}
